Earlier results as cited in several papers.
Protocols differ between the studies behind these lines. ± gives the spread as reported.
Organism: Plasmodium falciparum

O=C1C(O)=C([C@H]2CC[C@H](c3ccc(Cl)cc3)CC2)C(=O)c2ccccc21 — IC50: 0.001 µM
O=C(/C=C/c1ccc(Cl)c(Cl)c1)N1CCC(CCN2CCC(c3c[nH]c4cnccc34)CC2)CC1 — inhibition (parasite development; Dd2; 2 µM): > 90%
COc1cc(O)c(-c2ccc(OC)c3c(O)cc(C)c(-c4cc(-c5c(O)cc(OC)c6c5C[C@H](C)N(C)[C@@H]6C)c5cc(C)cc(OC)c5c4O)c23)c2c1[C@@H](C)N(C)[C@H](C)C2 — IC50 (NF54): 0.017 µM
COC(=O)C1=CO[C@@H](C)[C@@H]2Cn3ccc4c5ccccc5nc-4c3C[C@H]12 — IC50 (D6; 72 h): 0.048 µM
O=C(O)[C@@H]1Cc2c([nH]c3ccccc23)[C@@H](c2ccccc2Cl)N1 — IC50 (parasite growth; Dd2): 3.28 ± 0.99 µM
CC(C)(C)OC(=O)N[C@H](Cc1ccccc1)[C@@H](O)CN1CCC(N2CCCCC2)CC1 — IC50 (parasite growth; 3D7; 48 h): 1.16 µM
O=c1c(NCCCN(Cc2ccc(F)cc2)c2ccccn2)c(NCc2cccnc2)c1=O — inhibition (parasite development; Dd2; 2 µM): > 90%
NC(=O)[C@@H]1Cc2c([nH]c3ccccc23)[C@@H](c2ccc(Cl)cc2Cl)N1 — IC50 (parasite growth; Dd2): 1.2 ± 0.1 µM
COc1ccc2nc3cc(Cl)ccc3c(NCCN3CCN(C)CC3)c2c1 — inhibition (parasite development; Dd2; 2 µM): > 90%
CCN(CC)S(=O)(=O)c1cc(/C=C/C(=O)Nc2cc(N3CCOCC3)ccc2Cl)ccc1C — EC50 (3D7): 1 µM
O=C1c2ccccc2-[n+]2ccc3c([nH]c4ccccc43)c21 — IC50 (parasite growth; K1): 0.168 µM
